Measured values gathered from unrelated publications.
Protocols differ between the studies behind these lines.
Organism: Pseudomonas aeruginosa

Compound	assay	test system	conditions	MIC
C#CCNC(=O)[C@H]1NC(=O)[C@H]2NC(=O)[C@H](NC(=O)[C@@H]3NC(=O)[C@H](CC(N)=O)NC(=O)[C@H](NC(=O)[C@@H](CC(C)C)NC)[C@H](O)c4ccc(c(Cl)c4)Oc4cc3cc(c4O[C@@H]3O[C@H](CO)[C@@H](O)[C@H](O)[C@H]3O[C@H]3C[C@](C)(N)[C@H](O)[C@H](C)O3)Oc3ccc(cc3Cl)[C@H]2O)c2ccc(O)c(c2)-c2c(O)cc(O)cc21	broth microdilution	ATCC 10145, cation-adjusted Mueller-Hinton broth	–	> 86 µM
CCCC[C@H](NC(=O)[C@H](Cc1ccc(O)cc1)NC(=O)[C@@H]1CCCN1C(=O)[C@@H]1CCCN1C(=O)[C@H](CCCCN)NC(=O)[C@H](CC(=O)O)NC(=O)[C@@H](N)C(C)C)C(=O)N1CCC[C@H]1C(=O)N[C@@H](CCCNC(=N)N)C(=O)N1CCC[C@H]1C(=O)N[C@@H](CCCNC(=N)N)C(=O)N1CCC[C@H]1C(=O)N1CCC[C@H]1C(=O)N[C@@H](CCCNC(=N)N)C(=O)N[C@H](CCCNC(=N)N)C(=O)N[C@H](C(=O)N[C@@H](Cc1ccc(O)cc1)C(=O)N[C@@H](CC(N)=O)C(=O)N[C@H](CCCNC(=N)N)C(N)=O)[C@@H](C)CC	broth microdilution	DSM 1117	18 h, 37 °C, 25% MHB2	128 µg/mL
CC[C@H](C)[C@H](NC(=O)[C@H](CCCCN)NC(=O)[C@H](CC(N)=O)NC(=O)CNC(=O)[C@@H](NC(=O)[C@H](C)NC(=O)[C@H](CCCNC(=N)N)NC(=O)[C@H](CC(C)C)NC(=O)[C@H](CCCCN)NC(=O)[C@H](CCCCN)NC(=O)[C@H](CCCCN)NC(=O)[C@H](C)NC(=O)[C@H](CCCCN)NC(=O)[C@@H]1CSSC[C@H](NC(=O)[C@H](CCCNC(=N)N)NC(=O)CN)C(=O)N[C@@H](CC(N)=O)C(=O)N[C@@H](CC(C)C)C(=O)N[C@@H](CC(C)C)C(=O)N1)C(C)C)C(=O)N[C@@H](CCCCN)C(=O)N[C@@H](CCC(=O)O)C(=O)N[C@H](C(=O)N[C@@H](CCCCN)C(=O)N[C@@H](CC(N)=O)C(=O)N[C@H](C(=O)N[C@H](C(=O)N[C@@H](Cc1ccccc1)C(=O)N[C@@H](CC(N)=O)C(=O)N[C@@H](CCCNC(=N)N)C(=O)O)C(C)C)C(C)C)[C@@H](C)CC	broth dilution	ATCC 27853	–	100 µM
c1ccc2c(c1)nc(CNCC13CC4CC(CC(C4)C1)C3)n2CC1CCCCC1	–	ATCC 27853	–	> 128 µg/mL
CC(C)C[C@@H]1NC(=O)[C@H](CCCCN)NC(=O)C(N)CCC=CCCCC(C(N)=O)NC(=O)[C@H](CCCCN)NC(=O)[C@H](CC(C)C)NC(=O)[C@H](CCCCN)NC(=O)C2CCCC=CCCC(NC(=O)[C@H](CCCCN)NC1=O)C(=O)N[C@@H](CCCCN)C(=O)N1CCC[C@@H]1C(=O)NCC(=O)N[C@@H](CCCCN)C(=O)N2 (stereo partly shown)	broth microdilution	ATCC 9027, Mueller-Hinton broth	18 h, 37 °C	64 µM
CC[C@H](C)[C@H](NC(=O)[C@@H](CCCNC(=N)N)NC(=O)[C@H](CCCNC(=N)N)NC(=O)[C@H](CCC(N)=O)NC(=O)[C@H](Cc1c[nH]c2ccccc12)NC(=O)[C@H](CCCNC(=N)N)NC(=O)[C@@H]1CCCN1C(=O)[C@H](CCCNC(=N)N)NC(=O)[C@@H]1CCCN1C(=O)[C@H](CC(C)C)NC(=O)[C@H](Cc1ccc(O)cc1)NC(=O)[C@@H]1CCCN1C(=O)[C@@H]1CCCN1C(=O)[C@H](CCCCN)NC(=O)[C@H](CC(=O)O)NC(=O)[C@@H](N)C(C)C)C(=O)N[C@@H](Cc1ccc(O)cc1)C(=O)N[C@@H](CC(N)=O)C(=O)N[C@H](CCCNC(=N)N)C(N)=O	broth microdilution	DSM 1117	18 h, 37 °C, 25% MHB2	128 µg/mL
CN[C@H](CC(C)C)C(=O)N[C@H]1C(=O)N[C@@H](CC(N)=O)C(=O)N[C@H]2C(=O)N[C@H]3C(=O)N[C@H](C(=O)N[C@H](C(=O)O)c4cc(O)cc(O)c4-c4cc3ccc4O)[C@H](O)c3ccc(c(Cl)c3)Oc3cc2cc(c3O[C@@H]2O[C@H](CO)[C@@H](O)[C@H](O)[C@H]2O[C@H]2C[C@](C)(NCc3ccc(OCc4cn(CC(=O)N[C@H](C(=O)N[C@@H](CCN)C(=O)N[C@H]5CCNC(=O)[C@H]([C@@H](C)O)NC(=O)[C@H](CCN)NC(=O)[C@H](CCN)NC(=O)[C@H](CC(C)C)NC(=O)[C@@H](CC(C)C)NC(=O)[C@H](CCN)NC5=O)[C@@H](C)O)nn4)c(OC)c3)[C@H](O)[C@H](C)O2)Oc2ccc(cc2Cl)[C@H]1O	broth microdilution	ATCC 13883, cation-adjusted Mueller-Hinton broth	–	3 µM
CCCCCCCC(=O)N[C@@H](CCN)C(=O)N[C@H](C(=O)N[C@@H](CCN)C(=O)N[C@H]1CCNC(=O)[C@H]([C@@H](C)O)NC(=O)[C@H](CCN)NC(=O)[C@H](CCN)NC(=O)[C@H](CCCCCC)NC(=O)[C@@H](Cc2ccccc2)NC(=O)[C@H](CCN)NC1=O)[C@@H](C)O	broth microdilution	PAO1, colistin-susceptible	–	< 0.125 µg/mL
CN[C@H](CC(C)C)C(=O)N[C@H]1C(=O)N[C@@H](CC(N)=O)C(=O)N[C@H]2C(=O)N[C@H]3C(=O)N[C@H](C(=O)N[C@H](C(=O)NCc4cn(CC(=O)N[C@H](C(=O)N[C@@H](CCN)C(=O)N[C@H]5CCNC(=O)[C@H]([C@@H](C)O)NC(=O)[C@H](CCN)NC(=O)[C@H](CCN)NC(=O)[C@H](CC(C)C)NC(=O)[C@@H](CC(C)C)NC(=O)[C@H](CCN)NC5=O)[C@@H](C)O)nn4)c4cc(O)cc(O)c4-c4cc3ccc4O)[C@H](O)c3ccc(c(Cl)c3)Oc3cc2cc(c3O[C@@H]2O[C@H](CO)[C@@H](O)[C@H](O)[C@H]2O[C@H]2C[C@](C)(N)[C@H](O)[C@H](C)O2)Oc2ccc(cc2Cl)[C@H]1O	broth microdilution	ATCC 27853, cation-adjusted Mueller-Hinton broth	–	6 µM
CC(=O)N[C@@H](CC(C)C)C(=O)N[C@H]1CSSC[C@@H](C(=O)N2CCC[C@H]2C(N)=O)NC(=O)[C@H]([C@@H](C)O)NC(=O)[C@H](C(C)C)NC(=O)[C@H]([C@@H](C)O)NC(=O)CNC(=O)[C@H](CC(C)C)NC(=O)[C@H](Cc2ccccc2)NC(=O)[C@H](Cc2ccc(O)cc2)NC(=O)[C@H](CC(C)C)NC(=O)[C@H](CCCCN)NC(=O)[C@H](Cc2ccccc2)NC(=O)[C@H](CCCNC(=N)N)NC(=O)[C@H](CCCCN)NC(=O)[C@H](CC(C)C)NC(=O)[C@H](CCCCN)NC(=O)[C@@H]2CCCN2C(=O)[C@H](CCCCN)NC(=O)[C@H](C(C)C)NC(=O)[C@H](CC(N)=O)NC(=O)[C@H](Cc2ccc(O)cc2)NC(=O)[C@H]([C@@H](C)O)NC1=O	broth dilution	CGMCC strain	24 h	2.5 to 5 µM

Repeated from above:
Compound	assay	test system	conditions	MIC
CN[C@H](CC(C)C)C(=O)N[C@H]1C(=O)N[C@@H](CC(N)=O)C(=O)N[C@H]2C(=O)N[C@H]3C(=O)N[C@H](C(=O)N[C@H](C(=O)O)c4cc(O)cc(O)c4-c4cc3ccc4O)[C@H](O)c3ccc(c(Cl)c3)Oc3cc2cc(c3O[C@@H]2O[C@H](CO)[C@@H](O)[C@H](O)[C@H]2O[C@H]2C[C@](C)(NCc3ccc(OCc4cn(CC(=O)N[C@H](C(=O)N[C@@H](CCN)C(=O)N[C@H]5CCNC(=O)[C@H]([C@@H](C)O)NC(=O)[C@H](CCN)NC(=O)[C@H](CCN)NC(=O)[C@H](CC(C)C)NC(=O)[C@@H](CC(C)C)NC(=O)[C@H](CCN)NC5=O)[C@@H](C)O)nn4)c(OC)c3)[C@H](O)[C@H](C)O2)Oc2ccc(cc2Cl)[C@H]1O	broth microdilution	ATCC 13883, cation-adjusted Mueller-Hinton broth	–	3 µM
CCCCCCCC(=O)N[C@@H](CCN)C(=O)N[C@H](C(=O)N[C@@H](CCN)C(=O)N[C@H]1CCNC(=O)[C@H]([C@@H](C)O)NC(=O)[C@H](CCN)NC(=O)[C@H](CCN)NC(=O)[C@H](CCCCCC)NC(=O)[C@@H](Cc2ccccc2)NC(=O)[C@H](CCN)NC1=O)[C@@H](C)O	broth microdilution	PAO1, colistin-susceptible	–	< 0.125 µg/mL
